Results from different studies.
Every numbered part comes from another study and shows a few of its results, in no order.

Series 1 — observed: enzyme activity; action: inhibitor; tested at: 0.5 µM; relative to: control; measurement: remaining activity
Target: Ribosomal protein S6 kinase alpha-5 (RPS6KA5, Homo sapiens, UniProt O75582)
UniProt O75582, sequence (whole entry, looked up): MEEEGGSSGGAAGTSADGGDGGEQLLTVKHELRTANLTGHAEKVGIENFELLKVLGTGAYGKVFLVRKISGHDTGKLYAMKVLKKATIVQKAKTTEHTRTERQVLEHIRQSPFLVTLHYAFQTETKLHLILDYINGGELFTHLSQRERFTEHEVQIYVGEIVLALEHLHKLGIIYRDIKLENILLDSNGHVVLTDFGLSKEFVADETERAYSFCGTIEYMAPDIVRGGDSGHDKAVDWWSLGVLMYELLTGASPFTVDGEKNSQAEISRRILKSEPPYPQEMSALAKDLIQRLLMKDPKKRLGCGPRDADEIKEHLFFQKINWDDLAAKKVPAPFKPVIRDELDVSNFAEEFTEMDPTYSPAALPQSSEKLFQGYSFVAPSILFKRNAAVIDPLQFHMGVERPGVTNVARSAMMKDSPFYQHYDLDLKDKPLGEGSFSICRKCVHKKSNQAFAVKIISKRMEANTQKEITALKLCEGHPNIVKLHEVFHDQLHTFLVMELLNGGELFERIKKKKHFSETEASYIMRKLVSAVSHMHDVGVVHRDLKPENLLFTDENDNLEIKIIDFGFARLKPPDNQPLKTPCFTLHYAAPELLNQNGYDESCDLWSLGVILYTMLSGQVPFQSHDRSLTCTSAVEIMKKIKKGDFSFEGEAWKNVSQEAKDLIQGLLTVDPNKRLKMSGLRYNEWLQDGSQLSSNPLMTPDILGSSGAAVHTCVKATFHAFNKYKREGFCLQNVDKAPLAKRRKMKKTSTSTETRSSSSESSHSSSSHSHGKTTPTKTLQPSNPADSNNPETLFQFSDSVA
Compound = Nc1[nH]nc2nc3ccccc3nc12; result = 92.4%
Compound = NCCNc1ncc(C(N)=O)c(Nc2cccc(C(F)(F)F)c2)n1; result = 103%
Compound = C#Cc1cccc(Nc2ncnc3cc(OCCOC)c(OCCOC)cc23)c1; result = 96.8%
Compound = Nc1ncnc2n[nH]c(Nc3ccc(F)cc3)c12; result = 96.7%
Compound = O=C1NC(=O)C(c2cn(CCCO)c3ncccc23)=C1c1cnccn1; result = 73.9%
Compound = O=C1NC(=O)C(c2cn(CCCn3ccnc3)c3ccccc23)=C1Nc1ccccc1; result = 36.9%
Compound = COc1ccc(OC)c2c(=S)c3ccccc3[nH]c12; result = 86%
Compound = CO[C@H]1C[C@@H]2CC[C@@H](C)[C@@](O)(O2)C(=O)C(=O)N2CCCC[C@H]2C(=O)O[C@H]([C@H](C)C[C@@H]2CC[C@@H](O)[C@H](OC)C2)CC(=O)[C@H](C)/C=C(\C)[C@@H](O)[C@@H](OC)C(=O)[C@H](C)C[C@H](C)/C=C/C=C/C=C/1C; result = 106%
Compound = COc1cc2ncnc(Nc3ccc(Oc4ccccc4)cc3)c2cc1OC; result = 106%
Compound = COc1cc2ncnc(Nc3ccc(F)c(Cl)c3)c2cc1OCCCN1CCOCC1; result = 100%
Compound = Cn1c2ccccc2c2c3c(c4c5ccccc5n(CCC#N)c4c21)CNC3=O; result = 23.7%
Compound = Cn1sc(=O)n(Cc2ccccc2)c1=O; result = 108%
Compound = Cc1ccc(Nc2nccc(N(C)c3ccc4c(C)n(C)nc4c3)n2)cc1S(N)(=O)=O; result = 101%
Compound = CNC(=O)c1cc(Oc2ccc(NC(=O)Nc3ccc(Cl)c(C(F)(F)F)c3)cc2)ccn1; result = 102%
Compound = O=C(CCCc1ccc(-c2ccccc2F)cc1)Nc1ccc(O)cc1; result = 95.2%

Series 2 — organism: Sarcocystis neurona; observed: parasite growth; tested at: 10 µM; time: 96 h; setting: first screen; relative to: untreated; measurement: log2 fold change
Structure (SMILES) = CCCNCC(O)COc1ccccc1C(=O)CCc1ccccc1 (stereo not shown); result = -1.63
Structure (SMILES) = CN(CCCN1c2ccccc2CCc2ccccc21)CC(=O)c1ccc(Cl)cc1; result = -0.0753
Structure (SMILES) = C[C@@H]1C[C@H]2[C@@H]3C[C@H](F)C4=CC(=O)C(Cl)=C[C@]4(C)[C@@]3(F)[C@@H](O)C[C@]2(C)[C@@]1(O)C(=O)CO; result = -0.37
Structure (SMILES) = COc1cccc2c1C(=O)c1c(O)c3c(c(O)c1C2=O)C[C@@](O)(C(=O)CO)C[C@@H]3O[C@H]1C[C@H](N)[C@@H](O)[C@H](C)O1; result = -3.34
Structure (SMILES) = Cc1onc(-c2ccccc2)c1-c1ccc(S(N)(=O)=O)cc1; result = 0.13
Structure (SMILES) = CC(=O)O[C@@]12CO[C@@H]1C[C@H](O)[C@@]1(C)C(=O)[C@H](O)C3=C(C)[C@@H](OC(=O)[C@H](O)[C@@H](NC(=O)OC(C)(C)C)c4ccccc4)C[C@@](O)([C@@H](OC(=O)c4ccccc4)[C@H]21)C3(C)C; result = -1.14
Structure (SMILES) = c1cnc(N2CCN(Cc3ccc4c(c3)OCO4)CC2)nc1; result = 0.25
Structure (SMILES) = CC(C)(C)NCC(O)c1cc(O)cc(O)c1 (stereo not shown); result = 0.52
Structure (SMILES) = CC(=O)OCC(=O)[C@@]1(O)CC[C@H]2[C@@H]3CCC4=CC(=O)C=C[C@]4(C)[C@H]3[C@@H](O)C[C@@]21C; result = 0.21
Structure (SMILES) = Oc1ccc(C2CNCCc3c2cc(O)c(O)c3Cl)cc1 (stereo not shown); result = -0.00225
Structure (SMILES) = COc1ccc2cc(CCC(C)=O)ccc2c1; result = 1.88
Structure (SMILES) = CO[C@@]1(NC(=O)Cc2cccs2)C(=O)N2C(C(=O)O)=C(COC(N)=O)CS[C@@H]21; result = 0.21

Series 3 — technique: phase 2a trial; host: idiopathic pulmonary fibrosis patients; measurement: patients with pneumonia
Compound: CC(C)n1cnc(-c2ccc(F)cc2)c1-c1ncc(C(=O)Nc2ccc(N3CCN(C)CC3)cc2)[nH]1
dose = 30 mg once daily; setting = grade 4 emergent event; result = 0%
dose = 30 mg once daily; setting = grade 3 emergent event; result = 0%
dose = all arms pooled; setting = grade 2 emergent event; result = 0%
dose = 60 mg once daily; setting = grade 2 emergent event; result = 0%
dose = 30 mg once daily; setting = grade 1 emergent event; result = 0%
dose = 60 mg once daily; setting = grade 4 emergent event; result = 0%
dose = 60 mg once daily; setting = grade 1 emergent event; result = 0%

Series 4 — observed: cell-free assay; tested at: 10 µM; measurement: inhibition
Target: 5-hydroxytryptamine receptor 5A (HTR5A, Homo sapiens, UniProt P47898)
UniProt P47898, sequence (whole entry, looked up): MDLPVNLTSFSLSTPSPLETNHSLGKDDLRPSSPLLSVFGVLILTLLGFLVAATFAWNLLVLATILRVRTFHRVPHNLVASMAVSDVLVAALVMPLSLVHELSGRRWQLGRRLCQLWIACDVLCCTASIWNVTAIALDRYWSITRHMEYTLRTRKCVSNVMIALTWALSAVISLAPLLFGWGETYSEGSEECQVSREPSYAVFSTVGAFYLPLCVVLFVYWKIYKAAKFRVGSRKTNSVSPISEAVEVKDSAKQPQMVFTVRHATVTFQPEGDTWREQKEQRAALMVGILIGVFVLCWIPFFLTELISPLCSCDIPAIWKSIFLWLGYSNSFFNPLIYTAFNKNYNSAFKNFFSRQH
Structure (SMILES) = O=C(c1ccc(F)cc1)N1CC(COc2ccc(Br)cc2)(C(=O)O)C1; result = -14.3%
Structure (SMILES) = Cc1c(C(=O)O)cc(-c2ccc(C3CCNCC3)cc2)c2ccc(-c3ccc(C(F)(F)F)cc3)cc12; result = -0.81%
Structure (SMILES) = CNCc1ccccc1-c1csc([C@@H](C)Nc2nc(C)nc3cc(OC)c(OC)cc23)c1; result = 68.5%
Structure (SMILES) = N#Cc1ccc(Nc2ccc3[nH]c(=O)[nH]c3c2)c(Cl)c1; result = -7.6%
Structure (SMILES) = Cn1nc(C(=O)NCc2ccc(C(=O)O)cc2)cc1-c1ccc2[nH]ccc2c1; result = 0.78%
Structure (SMILES) = CN(C)c1ncnc(-c2ccc3nc(Nc4cc(CN5CCN(C(=O)CC(F)(F)F)CC5)ccn4)[nH]c3c2)c1Cl; result = 23.6%
Structure (SMILES) = Cc1c(NC(=O)c2cc(C(N)=O)nc3cc(F)ccc23)c(C(F)(F)F)nn1Cc1ccc(C(C)(C)C)cc1; result = 8.32%
Structure (SMILES) = CN(C)CC#Cc1ccc(OCCCc2sc(N3CCc4cccc(C(=O)Nc5nc6ccccc6s5)c4C3)nc2C(=O)O)c(F)c1; result = -3.1%
Structure (SMILES) = COc1ccc2cc(OCC3(C(=O)O)CN(C(=O)c4ccc(F)cc4)C3)ccc2c1; result = -8.97%
Structure (SMILES) = CO[C@@H](C)c1c(Nc2ccc([C@H](N(C)C(=O)C3CCS(=O)(=O)CC3)C(F)(F)F)cc2)cnc2cc(Cl)nn12; result = -13.3%
Structure (SMILES) = O=C(N[C@H]1CCCCC/C=C\C2C[C@@]2(C(=O)O)NC(=O)[C@@H]2C[C@@H](Oc3ccncc3)CN2C1=O)OC1CCCC1 (stereo partly shown); result = 1.81%
Structure (SMILES) = Cc1nc(N2CC[C@@H](O)C2)ncc1-c1cc(C(F)(F)F)cc2[nH]ncc12; result = -2.09%

For quick reference, copied from above (series 1):
Compound = O=C1NC(=O)C(c2cn(CCCn3ccnc3)c3ccccc23)=C1Nc1ccccc1; result = 36.9%
Compound = COc1ccc(OC)c2c(=S)c3ccccc3[nH]c12; result = 86%
Compound = CO[C@H]1C[C@@H]2CC[C@@H](C)[C@@](O)(O2)C(=O)C(=O)N2CCCC[C@H]2C(=O)O[C@H]([C@H](C)C[C@@H]2CC[C@@H](O)[C@H](OC)C2)CC(=O)[C@H](C)/C=C(\C)[C@@H](O)[C@@H](OC)C(=O)[C@H](C)C[C@H](C)/C=C/C=C/C=C/1C; result = 106%
Compound = COc1cc2ncnc(Nc3ccc(Oc4ccccc4)cc3)c2cc1OC; result = 106%
